# Measurements collected from several papers.
# Protocols differ between the studies behind these lines. Numbers after ± are the reported error.
# Astl: Astacin-like metalloendopeptidase (Astl, Mus musculus, UniProt Q6HA09)
# UniProt Q6HA09, sequence (whole entry, looked up): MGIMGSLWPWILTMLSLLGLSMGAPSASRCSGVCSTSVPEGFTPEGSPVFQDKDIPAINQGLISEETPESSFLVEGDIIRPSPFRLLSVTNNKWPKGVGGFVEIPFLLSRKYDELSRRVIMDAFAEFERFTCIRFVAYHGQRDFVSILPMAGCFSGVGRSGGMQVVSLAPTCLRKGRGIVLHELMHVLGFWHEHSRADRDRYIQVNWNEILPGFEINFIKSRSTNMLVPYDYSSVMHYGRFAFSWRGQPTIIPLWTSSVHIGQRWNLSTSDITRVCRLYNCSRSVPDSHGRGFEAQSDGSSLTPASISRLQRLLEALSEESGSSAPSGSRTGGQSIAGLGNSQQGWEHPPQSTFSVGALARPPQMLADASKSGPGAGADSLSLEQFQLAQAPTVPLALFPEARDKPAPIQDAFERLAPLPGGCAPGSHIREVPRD
# DRD2: D(2) dopamine receptor (DRD2, Homo sapiens, UniProt P14416)
# UniProt P14416, sequence (whole entry, looked up): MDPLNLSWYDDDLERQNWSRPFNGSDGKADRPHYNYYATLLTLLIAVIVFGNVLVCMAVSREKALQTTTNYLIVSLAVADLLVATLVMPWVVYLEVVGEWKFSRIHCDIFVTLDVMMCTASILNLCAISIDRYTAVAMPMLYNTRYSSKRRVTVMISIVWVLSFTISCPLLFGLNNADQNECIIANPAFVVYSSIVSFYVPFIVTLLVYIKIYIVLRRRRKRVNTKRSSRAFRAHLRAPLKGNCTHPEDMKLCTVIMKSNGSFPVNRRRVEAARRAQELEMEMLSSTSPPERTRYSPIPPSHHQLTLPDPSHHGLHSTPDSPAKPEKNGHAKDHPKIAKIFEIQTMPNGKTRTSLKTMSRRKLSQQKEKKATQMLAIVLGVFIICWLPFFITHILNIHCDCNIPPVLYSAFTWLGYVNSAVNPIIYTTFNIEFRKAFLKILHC
# bglA: bglA (Thermotoga maritima, UniProt Q08638)
# UniProt Q08638, sequence (whole entry, looked up): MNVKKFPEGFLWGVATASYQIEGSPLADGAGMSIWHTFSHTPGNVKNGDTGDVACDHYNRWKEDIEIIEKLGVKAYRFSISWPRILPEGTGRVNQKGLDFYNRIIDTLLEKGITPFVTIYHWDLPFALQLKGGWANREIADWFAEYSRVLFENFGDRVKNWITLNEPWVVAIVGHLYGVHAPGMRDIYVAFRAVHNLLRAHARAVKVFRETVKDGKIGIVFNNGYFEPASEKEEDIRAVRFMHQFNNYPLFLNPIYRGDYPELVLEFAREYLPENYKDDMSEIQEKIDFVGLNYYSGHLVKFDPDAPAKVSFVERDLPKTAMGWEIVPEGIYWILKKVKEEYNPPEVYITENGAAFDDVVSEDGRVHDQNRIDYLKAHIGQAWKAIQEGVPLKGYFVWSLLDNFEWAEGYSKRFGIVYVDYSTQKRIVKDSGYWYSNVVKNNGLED
# EPHA2: Ephrin type-A receptor 2 (EPHA2, Homo sapiens, UniProt P29317)
# UniProt P29317, sequence (whole entry, looked up): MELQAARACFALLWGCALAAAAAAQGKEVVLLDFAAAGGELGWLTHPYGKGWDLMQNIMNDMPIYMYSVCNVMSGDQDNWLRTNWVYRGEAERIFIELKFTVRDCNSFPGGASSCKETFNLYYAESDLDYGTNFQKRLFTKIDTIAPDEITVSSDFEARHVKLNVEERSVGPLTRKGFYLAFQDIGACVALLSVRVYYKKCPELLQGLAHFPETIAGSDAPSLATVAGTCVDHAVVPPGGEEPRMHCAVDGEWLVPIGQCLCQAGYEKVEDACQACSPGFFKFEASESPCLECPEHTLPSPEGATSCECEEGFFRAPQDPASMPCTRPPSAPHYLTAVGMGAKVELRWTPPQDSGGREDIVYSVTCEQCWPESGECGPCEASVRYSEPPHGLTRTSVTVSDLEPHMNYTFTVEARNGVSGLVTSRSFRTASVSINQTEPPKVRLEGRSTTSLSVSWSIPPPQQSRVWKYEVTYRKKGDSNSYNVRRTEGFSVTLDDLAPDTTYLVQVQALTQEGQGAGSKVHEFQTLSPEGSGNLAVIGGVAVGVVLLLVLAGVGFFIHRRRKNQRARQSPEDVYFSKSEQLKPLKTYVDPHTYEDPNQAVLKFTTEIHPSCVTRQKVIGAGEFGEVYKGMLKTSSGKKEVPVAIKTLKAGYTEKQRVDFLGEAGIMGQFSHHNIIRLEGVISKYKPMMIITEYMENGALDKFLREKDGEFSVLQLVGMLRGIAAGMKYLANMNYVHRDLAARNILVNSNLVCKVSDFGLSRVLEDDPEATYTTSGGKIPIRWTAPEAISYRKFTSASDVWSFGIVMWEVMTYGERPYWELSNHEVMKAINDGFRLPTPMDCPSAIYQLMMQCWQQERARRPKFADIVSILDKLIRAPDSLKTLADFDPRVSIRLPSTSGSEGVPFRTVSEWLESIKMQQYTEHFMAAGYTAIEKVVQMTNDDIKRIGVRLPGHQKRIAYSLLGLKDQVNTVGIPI
# CAPN1: Calpain-1 catalytic subunit (CAPN1, Homo sapiens, UniProt P07384)
# UniProt P07384, sequence (whole entry, looked up): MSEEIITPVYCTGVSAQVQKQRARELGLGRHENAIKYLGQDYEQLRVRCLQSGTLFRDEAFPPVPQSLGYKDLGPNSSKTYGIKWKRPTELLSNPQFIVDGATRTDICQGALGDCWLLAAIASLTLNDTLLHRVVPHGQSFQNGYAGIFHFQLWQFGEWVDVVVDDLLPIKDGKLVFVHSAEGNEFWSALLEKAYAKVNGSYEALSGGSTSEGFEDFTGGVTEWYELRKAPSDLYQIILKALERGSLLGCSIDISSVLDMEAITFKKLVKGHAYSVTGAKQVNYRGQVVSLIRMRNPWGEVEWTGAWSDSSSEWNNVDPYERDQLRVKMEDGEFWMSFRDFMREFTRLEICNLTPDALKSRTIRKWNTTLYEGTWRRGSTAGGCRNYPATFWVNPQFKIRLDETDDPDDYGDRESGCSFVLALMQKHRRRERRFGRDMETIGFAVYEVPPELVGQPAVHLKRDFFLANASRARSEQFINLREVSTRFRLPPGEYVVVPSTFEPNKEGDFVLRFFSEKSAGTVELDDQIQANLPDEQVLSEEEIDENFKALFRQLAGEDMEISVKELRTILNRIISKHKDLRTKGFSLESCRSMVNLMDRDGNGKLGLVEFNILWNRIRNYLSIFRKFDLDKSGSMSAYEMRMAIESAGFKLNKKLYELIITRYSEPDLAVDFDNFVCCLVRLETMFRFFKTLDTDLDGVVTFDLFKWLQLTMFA
# GLAA: Glucoamylase (GLAA, Aspergillus niger, UniProt P69328)
# UniProt P69328, sequence (whole entry, looked up): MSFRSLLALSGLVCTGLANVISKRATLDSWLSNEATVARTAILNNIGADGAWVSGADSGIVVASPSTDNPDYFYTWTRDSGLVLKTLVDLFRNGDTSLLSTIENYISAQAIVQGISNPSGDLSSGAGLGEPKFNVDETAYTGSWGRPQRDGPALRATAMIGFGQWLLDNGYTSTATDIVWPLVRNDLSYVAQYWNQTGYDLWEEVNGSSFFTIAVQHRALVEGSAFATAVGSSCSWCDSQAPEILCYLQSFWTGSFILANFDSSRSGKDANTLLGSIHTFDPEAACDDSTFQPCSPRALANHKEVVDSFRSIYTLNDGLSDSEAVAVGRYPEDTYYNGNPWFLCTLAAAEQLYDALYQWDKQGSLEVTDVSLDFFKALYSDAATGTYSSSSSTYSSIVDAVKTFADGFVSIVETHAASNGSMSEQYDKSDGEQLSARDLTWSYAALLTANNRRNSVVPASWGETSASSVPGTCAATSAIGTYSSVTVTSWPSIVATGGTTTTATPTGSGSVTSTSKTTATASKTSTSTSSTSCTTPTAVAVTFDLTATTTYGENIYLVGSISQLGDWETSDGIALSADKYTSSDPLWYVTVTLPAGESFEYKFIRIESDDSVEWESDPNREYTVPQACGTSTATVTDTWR
# Calpain-2 catalytic subunit: Calpain-2 catalytic subunit (Homo sapiens, UniProt P17655)
# UniProt P17655, sequence (whole entry, looked up): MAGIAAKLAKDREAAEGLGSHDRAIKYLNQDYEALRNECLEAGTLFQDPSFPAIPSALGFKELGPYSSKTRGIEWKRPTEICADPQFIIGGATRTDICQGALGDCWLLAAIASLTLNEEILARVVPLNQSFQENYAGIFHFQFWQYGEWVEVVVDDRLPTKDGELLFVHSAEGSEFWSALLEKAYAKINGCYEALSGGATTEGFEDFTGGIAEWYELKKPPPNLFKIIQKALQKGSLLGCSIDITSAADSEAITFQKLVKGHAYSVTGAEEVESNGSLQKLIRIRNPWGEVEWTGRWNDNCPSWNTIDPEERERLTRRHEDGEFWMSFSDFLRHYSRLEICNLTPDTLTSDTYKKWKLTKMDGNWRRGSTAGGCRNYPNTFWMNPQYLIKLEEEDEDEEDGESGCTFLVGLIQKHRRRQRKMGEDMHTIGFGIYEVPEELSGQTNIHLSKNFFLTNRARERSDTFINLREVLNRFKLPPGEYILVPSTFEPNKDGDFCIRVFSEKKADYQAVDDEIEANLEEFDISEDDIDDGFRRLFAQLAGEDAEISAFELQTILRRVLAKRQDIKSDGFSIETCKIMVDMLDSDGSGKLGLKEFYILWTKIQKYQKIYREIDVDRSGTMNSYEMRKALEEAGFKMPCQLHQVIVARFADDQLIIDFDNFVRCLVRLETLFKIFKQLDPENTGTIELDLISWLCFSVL
# DHFR: Dihydrofolate reductase (DHFR, Homo sapiens, UniProt P00374)
# Na(+)/H(+) exchange regulatory cofactor NHE-RF2 PDZ domain 1: Na(+)/H(+) exchange regulatory cofactor NHE-RF2, PDZ domain 1 (Homo sapiens, UniProt Q15599)
# UniProt P98170, sequence (whole entry, looked up): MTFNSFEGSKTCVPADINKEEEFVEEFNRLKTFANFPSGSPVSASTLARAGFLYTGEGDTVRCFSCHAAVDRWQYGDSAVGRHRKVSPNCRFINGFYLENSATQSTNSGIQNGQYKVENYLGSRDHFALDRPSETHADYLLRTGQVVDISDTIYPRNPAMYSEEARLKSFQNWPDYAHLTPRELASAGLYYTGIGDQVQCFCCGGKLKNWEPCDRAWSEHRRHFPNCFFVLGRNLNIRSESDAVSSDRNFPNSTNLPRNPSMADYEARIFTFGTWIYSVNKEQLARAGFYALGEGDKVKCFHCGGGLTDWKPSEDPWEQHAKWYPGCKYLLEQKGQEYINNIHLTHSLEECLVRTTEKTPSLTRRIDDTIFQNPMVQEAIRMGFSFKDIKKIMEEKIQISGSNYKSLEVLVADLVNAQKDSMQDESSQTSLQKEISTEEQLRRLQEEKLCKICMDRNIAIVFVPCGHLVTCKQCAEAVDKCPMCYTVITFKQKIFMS
# UniProt P16257, sequence (whole entry, looked up): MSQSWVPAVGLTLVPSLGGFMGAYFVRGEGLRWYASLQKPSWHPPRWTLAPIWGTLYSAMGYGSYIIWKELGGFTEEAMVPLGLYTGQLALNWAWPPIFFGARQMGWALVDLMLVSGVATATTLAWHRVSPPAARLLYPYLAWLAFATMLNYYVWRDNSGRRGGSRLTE
Compound,target,test,system,setting,Ki
O=C(CN(Cc1ccccc1)Cc1cccc(C(=O)O)c1)NO,Astl,"enzyme activity, inhibitor, fluorogenic",,"pH 7.4, 37 °C, apparent Ki, Morrison equation, together with: 25 µM substrate",11.1 ± 0.89 µM
CC(C)N1C[C@H](C)[C@H](NC(=O)c2cc3ccc(Br)cc3[nH]2)C1,DRD2,"ligand displacement, radioligand",,,> 10 µM
O=C(CNc1ccc2ccccc2c1)N/N=C/c1cc(Br)c(O)c(Br)c1,"Cystic fibrosis transmembrane conductance regulator (CFTR, Homo sapiens, UniProt P13569)","chloride current, inhibitor, short-circuit current",FRT,basolateral membrane permeabilized,4.7 µM
O=C(CN(Cc1cccc(C(=O)O)c1)Cc1ccc2c(c1)OCO2)NO,Astl,"enzyme activity, inhibitor, fluorogenic",,"pH 7.4, 37 °C, apparent Ki, Morrison equation, together with: 25 µM substrate",2.39 ± 0.06 µM
C[C@H]1CN(C2CC2)C[C@H]1NC(=O)c1cnc2c(F)ccc(F)c2c1,DRD2,"ligand displacement, radioligand",,,> 10 µM
CN[C@@H](C)C(=O)N[C@H]1CN(C(=O)Cc2ccccc2)CC[C@H]2CC[C@@H](C(=O)NCc3ccc(C(C)C)cc3)N2C1=O,"E3 ubiquitin-protein ligase XIAP, BIR3 domain (XIAP, Homo sapiens, UniProt P98170)","binding, fluorescence polarization",,BIR3 domain,38.4 ± 3.9 µM
COc1ccc(CN(CC(=O)NO)Cc2cccc(C(=O)O)c2)cc1,Astl,"enzyme activity, inhibitor, fluorogenic",,"pH 7.4, 37 °C, apparent Ki, Morrison equation, together with: 25 µM substrate",6.33 ± 0.31 µM
CN[C@@H](C)C(=O)N[C@H]1CN(C(=O)Cc2ccccc2)CC[C@H]2CC[C@@H](C(=O)NCc3ccccc3Cl)N2C1=O,"E3 ubiquitin-protein ligase XIAP, BIR3 (XIAP, Homo sapiens, UniProt P98170)","ligand displacement, FP",,,1.46 µM
CC(C)C[C@@H]1NC(=O)[C@H](C)NC(=O)[C@H](CC2CCN(C(=N)N)CC2)NC(=O)[C@H](CO)NC(=O)[C@H](CCCNC(=N)N)NC(=O)[C@H](CCCCN)NC(=O)[C@@H]2CCCN2C(=O)[C@@H](N)CSSC[C@@H](C(=O)O)NC(=O)[C@H](Cc2ccccc2)NC1=O,"Plasma kallikrein (Klkb1, Mus musculus, UniProt P26262)","enzyme activity, inhibitor, absorbance",,pH 7.4,0.043 µM
[N-]=[N+]=N[C@H]1C[C@H](n2cnc3c(N)nc(N)nc32)O[C@@H]1COP(=O)(O)OP(=O)(O)OP(=O)(O)O,"Telomerase reverse transcriptase (TERT, Homo sapiens, UniProt O14746)","enzyme activity, inhibitor",,,0.26 µM
CC(C)c1ccc(C(=O)Nc2ccc(CN)cc2)c(O)c1,"Transmembrane protease serine 2 (TMPRSS2, Homo sapiens, UniProt O15393)","enzyme activity, inhibitor, fluorescence",,,0.7 µM
Cc1ncsc1-c1ccc([C@H](C)NC(=O)[C@@H]2C[C@@H](O)CN2C(=O)[C@@H](N)C(C)(C)C)cc1,"von Hippel-Lindau disease tumor suppressor, with elongin B/C (VHL, Homo sapiens, UniProt P40337)",,,,3.4 µM
CCCCNC(=S)N1[C@H](CCC)[C@H](O)[C@@H](O)[C@H](O)[C@H]1CO,bglA,competitive inhibitor,,together with: p-nitrophenyl glucopyranoside,> 2000 µM
CNC(=O)C1CCN(c2ccccc2NC(=O)c2ccc(-c3cc(O)ccc3C)c(OC)c2)CC1,EPHA2,"enzyme activity, inhibitor",,,0.0092 µM
C/C=C/C[C@@H](C)[C@@H](O)[C@H]1C(=O)N[C@@H](CC)C(=O)N(C)C(Cc2ccc(C(=O)NCCCCCCNC(=O)c3ccc(-c4c5ccc(=[N+](C)C)cc-5oc5cc(N(C)C)ccc45)cc3)cc2)C(=O)N(C)[C@@H](CC(C)C)C(=O)N[C@@H](C(C)C)C(=O)N(C)[C@@H](CC(C)C)C(=O)N[C@@H](C)C(=O)N[C@H](C)C(=O)N(C)[C@@H](CC(C)C)C(=O)N(C)[C@@H](CC(C)C)C(=O)N(C)[C@@H](C(C)C)C(=O)N1C (stereo partly shown),"Peptidyl-prolyl cis-trans isomerase F, mitochondrial (Ppif, Rattus norvegicus, UniProt P29117)","PPIase activity, inhibitor",,"pH 7.5, 15 °C",0.202 µM
CCC(NC(=O)C(CC(C)C)NC(=O)Nc1ccncc1)C(=O)C(=O)NCc1cc(OC)cc(OC)c1 (stereo not shown),CAPN1,"enzyme activity, inhibitor, fluorescence",,,0.221 µM
N=C(N)NCC(=O)NCC1(Nc2ccccc2)CCCN(Cc2ccccc2)C1 (stereo not shown),"Neuropeptide FF receptor 2 (Homo sapiens, UniProt Q9Y5X5)",cell-free assay,,,1.89 µM
CCCCCCCCN=C1SC[C@@H]2[C@@H](O)[C@H](O)[C@@H](O)[C@@H](CCCCCCCC)N12,GLAA,"enzyme activity, inhibitor",,,305 µM
CNC(=O)C1CCN(c2cc(C)c(F)cc2NC(=O)c2ccc(-c3cc(O)ccc3C)c(C)c2)CC1,"Tyrosine-protein kinase Lyn, isoform A (LYN, Homo sapiens, UniProt P07948)",LanthaScreen binding,,,0.0118 µM
CC(Oc1nc(-c2ccccc2)nc2ccccc12)C(=O)N(C)c1ccccc1 (stereo not shown),"Translocator protein (Tspo, Rattus norvegicus, UniProt P16257)","binding, radioligand displacement",rat brain homogenate,,0.00013 ± 8e-05 µM
CCC(NC(=O)C(CC(C)C)NC(=O)NCc1ccccc1)C(=O)C(=O)NCc1cc(F)cc(OC)c1 (stereo not shown),Calpain-2 catalytic subunit,"enzyme activity, inhibitor, fluorescence",,,0.072 µM
C#CCOC(=O)[C@]1(C)C=C(C(=O)OC(C)(C)C)C(=O)CC1,"Mitogen-activated protein kinase 1 (MAPK1, Homo sapiens, UniProt P28482)","ligand displacement, FP",,,1 µM
CC[C@H](C)[C@H](NC(=O)[C@H](CCC(=O)O)NC(=O)[C@@H]1CCCN1C(=O)[C@H](CCCNC(=N)N)NC(C)=O)C(=O)N[C@@H](Cc1c[nH]c2ccccc12)C(=O)N[C@@H](Cc1ccc(O)cc1)C(=O)N[C@@H](C)C(=O)N[C@@H](CCC(N)=O)C(=O)NCC(=O)N[C@@H](CC(C)C)C(=O)N[C@@H](CCCCN)C(=O)N[C@@H](CCCNC(=N)N)C(=O)N[C@@H](Cc1ccccc1)C(=O)NCC(=O)N[C@@H](CC(=O)O)C(=O)N[C@@H](CCC(=O)O)C(=O)N[C@@H](Cc1ccccc1)C(=O)N[C@@H](CC(N)=O)C(=O)N[C@@H](C)C(=O)N[C@@H](Cc1ccc(O)cc1)C(=O)N[C@@H](CCCCN)C(=O)N[C@@H](C)C(=O)N[C@@H](CCCNC(=N)N)C(N)=O,"Bcl-2-like protein 1 (BCL2L1, Homo sapiens, UniProt Q07817)","ligand displacement, FP",,pH 7.8,≤ 0.0001 µM
CCC(NC(=O)C(CC(C)C)NC(=O)CCc1ccc(C#N)cc1)C(=O)C(=O)NCc1cc(OC)cc(OC)c1 (stereo not shown),Calpain-2 catalytic subunit,"enzyme activity, inhibitor, fluorescence",,,0.133 µM
CCC[C@@H]1[C@H](O)[C@@H](O)[C@H](O)[C@@H](CO)N1C(=S)NCCc1ccccc1,GLAA,"enzyme activity, inhibitor",,,455 µM
COc1ccc2[nH]c(NC(=N)N)nc2c1,DHFR,inhibitor,,,18.1 µM
CCC(NC(=O)C(CC(C)C)NC(=O)NCc1ccc(C#N)cc1)C(=O)C(=O)NCc1cc(OC)cc(OC)c1 (stereo not shown),CAPN1,"enzyme activity, inhibitor, fluorescence",,,0.252 µM
CC1(C)NC(N)=Nc2nc3ccccc3n21,DHFR,inhibitor,,,3.78 µM
CNc1ccccc1C(=O)O[C@H]1[C@@H](O)[C@H](n2ccc(N)nc2=O)O[C@@H]1COP(=O)(O)OP(=O)(O)O,"Adenylate cyclase type 1 (ADCY1, Bos taurus, UniProt P19754)","adenylyl cyclase activity, inhibitor",Sf9 membranes,"together with: 5 mM MnCl2, 100 µM forskolin",0.58 ± 0.01 µM
CSCC[C@H](NC(=O)[C@@H](N)CS)C(=O)N[C@@H](CCC(N)=O)C(=O)N[C@H](C(=O)N[C@@H](CO)C(=O)N[C@@H](CCCCN)C(=O)N[C@@H](CC(C)C)C(=O)O)[C@@H](C)O,Na(+)/H(+) exchange regulatory cofactor NHE-RF2 PDZ domain 1,"binding to PDZ1 domain, inhibitor, fluorescence polarization",,,31.7 ± 8.9 µM
CCC[C@@H]1[C@H](O)[C@@H](O)[C@H](O)[C@@H](CO)N1C(=S)NCc1ccc(C(F)(F)F)cc1,GLAA,"enzyme activity, competitive inhibitor",,"optimal pH, together with: p-nitrophenyl glycopyranoside",> 2000 µM
CC[C@H](C)[C@H](NC(=O)[C@@H](NC(=O)[C@H](CO)NC(=O)[C@@H](NC(=O)[C@@H]1CCCN1C(=O)[C@H](Cc1c[nH]c2ccccc12)NC(=O)[C@@H](N)CS)[C@@H](C)O)[C@@H](C)CC)C(=O)O,Na(+)/H(+) exchange regulatory cofactor NHE-RF2 PDZ domain 1,"binding to PDZ1 domain, inhibitor, fluorescence polarization",,,> 5000 µM
CNC(=O)C1CCN(c2ccccc2NC(=O)c2ccc(-c3ccnc4[nH]ccc34)c(C)c2)CC1,EPHA2,,,,> 0.25 µM
CCc1nc2ccc(N(Cc3ccccc3)C(=O)c3cccs3)cc2c(=O)n1Cc1ccc(-c2ccccc2-c2nn[nH]n2)cc1,"Type-1 angiotensin II receptor (AGTR1, Homo sapiens, UniProt P30556)","ligand displacement, radioligand",,,0.18 µM
Fc1cc(OCCCN2CCN(c3cccc4sccc34)CC2)ccc1CN1CCOCC1,"5-hydroxytryptamine receptor 2C (Rattus norvegicus, UniProt P08909)",,,,0.43 ± 0.0523 µM
CNC(=O)C1CCN(c2cc(C)ccc2NC(=O)c2ccc(-c3cc(O)ccc3C)c(C)c2)CC1,EPHA2,"enzyme activity, inhibitor",,,0.001 µM
CCC[C@@H]1[C@H](O)[C@@H](O)[C@H](O)[C@@H](CO)N1C(=S)NCc1ccccc1,bglA,competitive inhibitor,,together with: p-nitrophenyl glucopyranoside,> 2000 µM
Cc1ccc(C(=O)c2ccc(NC(=O)c3ncn(-c4ccc(Cl)cc4)n3)cc2)cc1,"Cannabinoid receptor 1 (CNR1, Homo sapiens, UniProt P21554)",binding,,,no binding
CCCCCCCC[C@@H]1[C@H](O)[C@@H](O)[C@H](O)[C@H]2CS/C(=N/CCCC)N12,GLAA,"enzyme activity, inhibitor",,,842 µM
O=C1c2cccc3cccc(c23)C(=O)N1CCNCCN1C(=O)c2cccc3cccc(c23)C1=O,"Chitooligosaccharidolytic beta-N-acetylglucosaminidase (Ostrinia furnacalis, UniProt Q06GJ0)",inhibitor,,"pH 6.0, 25 °C, together with: pNP-β-GlcNAc",> 100 µM

# For quick reference, copied from above:
Compound,target,test,system,setting,Ki
CCC[C@@H]1[C@H](O)[C@@H](O)[C@H](O)[C@@H](CO)N1C(=S)NCc1ccc(C(F)(F)F)cc1,GLAA,"enzyme activity, competitive inhibitor",,"optimal pH, together with: p-nitrophenyl glycopyranoside",> 2000 µM
[N-]=[N+]=N[C@H]1C[C@H](n2cnc3c(N)nc(N)nc32)O[C@@H]1COP(=O)(O)OP(=O)(O)OP(=O)(O)O,"Telomerase reverse transcriptase (TERT, Homo sapiens, UniProt O14746)","enzyme activity, inhibitor",,,0.26 µM
CCC(NC(=O)C(CC(C)C)NC(=O)NCc1ccccc1)C(=O)C(=O)NCc1cc(F)cc(OC)c1 (stereo not shown),Calpain-2 catalytic subunit,"enzyme activity, inhibitor, fluorescence",,,0.072 µM
O=C(CNc1ccc2ccccc2c1)N/N=C/c1cc(Br)c(O)c(Br)c1,"Cystic fibrosis transmembrane conductance regulator (CFTR, Homo sapiens, UniProt P13569)","chloride current, inhibitor, short-circuit current",FRT,basolateral membrane permeabilized,4.7 µM
N=C(N)NCC(=O)NCC1(Nc2ccccc2)CCCN(Cc2ccccc2)C1 (stereo not shown),"Neuropeptide FF receptor 2 (Homo sapiens, UniProt Q9Y5X5)",cell-free assay,,,1.89 µM
CCC(NC(=O)C(CC(C)C)NC(=O)NCc1ccc(C#N)cc1)C(=O)C(=O)NCc1cc(OC)cc(OC)c1 (stereo not shown),CAPN1,"enzyme activity, inhibitor, fluorescence",,,0.252 µM
